Experimental data from different studies.
Each line is one published result; not all experiments were run side by side. ± marks the error that the study gave.

O=C(NCC1OC2CCC=CCCC2O1)c1ccc([18F])nc1 (stereo not drawn)  tissue uptake (healthy female BALB/c nude mice, brain; intravenous, 7.4 MBq per mouse, 5 min): 2.7 ± 1.3 %ID/g
COc1cccc(OC)c1-c1cc(C(=O)NC2(C(=O)O)C3CC4CC(C3)CC2C4)nn1-c1ccc(C(=O)NCCNC(=O)[C@H](CCCCNC(=O)[C@H](CC(C)C)NC(=O)C2OC2C(=O)O)NC(=O)CN2CCN(CC(=O)[O-])CCN(CC(=O)[O-])CCN(CC(=O)[O-])CC2)cc1C(C)C.[177Lu+3] (mixture of isomers)  tissue uptake (mouse HT-29 xenograft, large intestine; 4 h post injection, biodistribution): 1.21 %ID/g
O=C1C2CC3CC1CC(C(=O)N1CCN(c4ccc([N+](=O)[O-])c5ncccc45)CC1)(C3)C2  revertant fold increase (Salmonella typhimurium; Ames test; TA98; 0.31 µg/well, with S9; reference: vehicle): 0.8
O=C(Nc1cnccc1-c1ccc([18F])nc1)c1ccnc(NC(=O)C2CC2)c1  mean SUV (ex vivo gamma counting; GSK-3β transgenic mice, early-stage, cecum; intravenous, 120 min): 15
CC(C)Cc1ccc(C(C)C(=O)N[C@@H](CCCCNC(=O)CCOCCOCCOCCOCCOCCOCCNC(=O)CN2CCN(CC(=O)[O-])CCN(CC(=O)[O-])CCN(CC(=O)[O-])CC2)C(=O)Nc2cccc3c(C(=O)NCC(=O)N4CC(F)(F)C[C@H]4C#N)ccnc23)cc1.[177Lu+3] (stereo partly drawn)  tissue uptake (mouse, U-87 MG tumour xenograft, kidneys; 1 h): 4.73 ± 0.92 %ID/g
C=CC(=O)Nc1cccc(Cn2ncc3cnc(Nc4cnn(CCOC)c4)nc32)c1  percent of control (PHKG2 human; binding, KINOMEscan; 100 nM; lower = stronger binding): 100%
Cc1ncsc1-c1ccc(C(C)NC(=O)C2CC(O)CN2C(=O)C(NC(=O)CCCCCCCCCCN2CCCC(Nc3ncc(Cl)c(Nc4ccccc4S(=O)(=O)C(C)C)n3)C2)C(C)(C)C)cc1 (stereo not drawn)  log2 fold change (22Rv1; RNA-seq, item: TERF2 mRNA; concentration not given; reference: DMSO): -1.13
COc1cccc(OC)c1-c1cc(C(=O)NC2(C(=O)O)C3CC4CC(C3)CC2C4)nn1-c1ccc(C(=O)N(C)CCOCCOCCN(C)C(=O)[C@H](CCCCNC(=O)[C@H](CC(C)C)NC(=O)C2OC2C(=O)O)NC(=O)CN2CCN(CC(=O)[O-])CCN(CC(=O)[O-])CCN(CC(=O)[O-])CC2)cc1C(C)C.[177Lu+3] (mixture of isomers)  tissue uptake (mouse, HT-29 xenograft, brain; 72 h post injection): 0.013 %ID/g
[123I]c1ccc2nc(-c3ccc(-n4ccnn4)nc3)cn2c1  tissue uptake (Wistar rat, bone; intravenous, 14 h): not detected
[11CH3]N1CCC(NC(=O)c2cc(-c3c(O)cc(O)cc3Oc3ccc([N+](=O)[O-])cc3)on2)CC1  tissue uptake (Wistar rat, female, healthy, spleen; intravenous, 10 min): 0.4 %ID
CCCC[C@H](NC(=O)CCCCCCCNC(=O)CN1CCN(CC(=O)O)CCN(CC(=O)O)CC1)C(=O)N[C@H]1CC(=O)NCCCC[C@@H](C(N)=O)NC(=O)[C@H](Cc2c[nH]c3ccccc23)NC(=O)[C@H](CCCNC(=N)N)NC(=O)[C@@H](Cc2ccccc2)NC(=O)[C@H](Cc2c[nH]cn2)NC1=O [fluorine-18 labelled]  tissue uptake (C57 mice B16-F10 melanoma, stomach; intravenous, 0.37 MBq, 0.5 h): 1.52 ± 0.32 %ID/g
Cc1cc(C)n(CCN(CCN)CCCCCCNC(=O)[C@@H](N)Cc2c[nH]cn2)n1.[99Tc+].[C-]#[O+].[C-]#[O+].[C-]#[O+]  tissue uptake (BALB/c nude mice, MCF7 xenograft, tumor; intravenous, 15 min): 0.35 ± 0.02 %IA/g
O=C(O)CCCOc1ccc([18F])cc1-c1cc(-c2ccccc2C(F)(F)F)n(-c2ccccc2)n1  tissue uptake (mouse, bone; intravenous, dose not given, 60 min): 1.46 ± 0.38 %ID/g
COC1CN([C@H]2CC[C@H]([C@@]3(C)Oc4c(Cl)cc(C(=O)NCc5c(SC)cc(C)[nH]c5=O)c(C)c4O3)CC2)C1  log2 fold change (RNA-seq, item: BPGM mouse homolog; mouse, HT-1376 xenograft, whole blood; dose not given; reference: vehicle): 1.24
COc1cccc(OC)c1-c1cc(C(=O)NC2(C(=O)O)C3CC4CC(C3)CC2C4)nn1-c1ccc(C(=O)N(C)CCOCCN(C)C(=O)[C@H](CCCCNC(=O)[C@H](CC(C)C)NC(=O)C2OC2C(=O)O)NC(=O)CN2CCN(CC(=O)[O-])CCN(CC(=O)[O-])CCN(CC(=O)[O-])CC2)cc1C(C)C.[177Lu+3] (mixture of isomers)  tissue uptake (mouse, HT-29 xenograft, muscle; 4 h post injection): 0.31 %ID/g

For quick reference, copied from above:
CC(C)Cc1ccc(C(C)C(=O)N[C@@H](CCCCNC(=O)CCOCCOCCOCCOCCOCCOCCNC(=O)CN2CCN(CC(=O)[O-])CCN(CC(=O)[O-])CCN(CC(=O)[O-])CC2)C(=O)Nc2cccc3c(C(=O)NCC(=O)N4CC(F)(F)C[C@H]4C#N)ccnc23)cc1.[177Lu+3] (stereo partly drawn)  tissue uptake (mouse, U-87 MG tumour xenograft, kidneys; 1 h): 4.73 ± 0.92 %ID/g
